# Assay results of several laboratories.
# Parts stem from different laboratories: compare values within a part only. Several values in a cell are separate wells, animals, samples, runs or records.
# UniProt P23975, sequence (whole entry, looked up): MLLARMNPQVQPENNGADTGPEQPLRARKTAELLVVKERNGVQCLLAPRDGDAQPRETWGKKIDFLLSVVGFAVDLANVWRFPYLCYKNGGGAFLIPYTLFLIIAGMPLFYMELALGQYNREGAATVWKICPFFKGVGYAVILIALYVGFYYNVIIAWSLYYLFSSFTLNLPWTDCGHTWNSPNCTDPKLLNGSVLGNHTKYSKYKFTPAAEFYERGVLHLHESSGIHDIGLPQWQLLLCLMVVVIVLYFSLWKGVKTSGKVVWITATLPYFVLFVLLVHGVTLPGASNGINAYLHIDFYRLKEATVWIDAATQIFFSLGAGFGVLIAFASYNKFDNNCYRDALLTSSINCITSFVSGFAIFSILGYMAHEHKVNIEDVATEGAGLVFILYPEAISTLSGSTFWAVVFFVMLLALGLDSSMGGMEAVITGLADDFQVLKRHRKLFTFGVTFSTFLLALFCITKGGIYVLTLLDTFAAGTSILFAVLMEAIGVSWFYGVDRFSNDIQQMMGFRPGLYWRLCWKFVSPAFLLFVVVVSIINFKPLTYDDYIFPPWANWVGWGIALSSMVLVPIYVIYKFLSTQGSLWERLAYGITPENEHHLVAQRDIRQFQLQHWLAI
# UniProt P31645, sequence (whole entry, looked up): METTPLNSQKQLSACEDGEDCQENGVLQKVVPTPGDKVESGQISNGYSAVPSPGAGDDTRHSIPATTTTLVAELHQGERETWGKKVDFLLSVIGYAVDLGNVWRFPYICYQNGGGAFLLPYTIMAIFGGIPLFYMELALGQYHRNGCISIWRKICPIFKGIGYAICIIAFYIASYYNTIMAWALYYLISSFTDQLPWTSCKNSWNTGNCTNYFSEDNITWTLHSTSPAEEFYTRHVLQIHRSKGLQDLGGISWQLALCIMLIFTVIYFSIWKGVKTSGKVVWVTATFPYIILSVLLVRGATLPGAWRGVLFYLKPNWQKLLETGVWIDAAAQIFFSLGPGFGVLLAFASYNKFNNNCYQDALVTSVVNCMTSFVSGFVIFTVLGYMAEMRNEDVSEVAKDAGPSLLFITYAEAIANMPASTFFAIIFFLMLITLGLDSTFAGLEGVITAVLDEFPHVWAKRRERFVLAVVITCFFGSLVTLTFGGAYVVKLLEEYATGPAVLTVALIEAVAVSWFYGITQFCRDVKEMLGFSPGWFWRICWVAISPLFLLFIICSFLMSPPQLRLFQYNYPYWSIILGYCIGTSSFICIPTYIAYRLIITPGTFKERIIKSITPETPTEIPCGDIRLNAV
# UniProt Q01959, sequence (whole entry, looked up): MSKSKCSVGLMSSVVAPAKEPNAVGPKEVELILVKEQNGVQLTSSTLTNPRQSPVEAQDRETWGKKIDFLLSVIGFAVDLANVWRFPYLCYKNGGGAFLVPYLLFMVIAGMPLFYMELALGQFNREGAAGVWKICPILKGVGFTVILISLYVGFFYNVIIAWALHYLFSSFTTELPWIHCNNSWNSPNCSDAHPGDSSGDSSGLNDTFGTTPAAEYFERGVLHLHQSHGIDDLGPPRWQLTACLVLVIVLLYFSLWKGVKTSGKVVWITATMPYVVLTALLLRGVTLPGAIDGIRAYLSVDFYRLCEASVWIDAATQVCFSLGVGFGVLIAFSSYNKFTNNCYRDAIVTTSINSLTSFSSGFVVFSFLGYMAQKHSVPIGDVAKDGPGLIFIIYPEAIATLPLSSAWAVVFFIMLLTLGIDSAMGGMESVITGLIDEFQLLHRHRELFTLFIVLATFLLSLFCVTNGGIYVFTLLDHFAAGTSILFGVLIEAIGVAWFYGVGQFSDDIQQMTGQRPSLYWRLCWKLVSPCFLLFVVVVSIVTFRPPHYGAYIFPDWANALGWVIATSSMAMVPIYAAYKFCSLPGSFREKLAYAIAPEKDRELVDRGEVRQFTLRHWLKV

# Study 1
# Compound: C[C@@H](c1cccc(C#N)c1)n1cc(Cl)cc(C(N)=O)c1=N
# Observed: ligand displacement
# Tested at: 10 µM
target,inhibition
"SLC6A2 (Homo sapiens, UniProt P23975)",-10.8%
"SLC6A4 (Homo sapiens, UniProt P31645)",14.8%
"SLC6A3 (Homo sapiens, UniProt Q01959)",-40.3%

# Study 2
# Cell line: HaCaT
# Tested at: 100 µM
# Time: 18 h
SMILES,viability
C[C@]12C=CC(=O)C=C1CC[C@@H]1[C@@H]2CC[C@@]2(C)[C@H]1CC[C@]2(C)O,92.3%
NCC(CC(=O)O)c1ccc(Cl)cc1 (centres unmarked),96.3%
ClCC1C(CCl)[C@@]2(Cl)C(Cl)=C(Cl)[C@]1(Cl)C2(Cl)Cl (some centres unmarked),20.1%
CC(C)N(CCNC(=O)CN1CCCC1=O)C(C)C,113%
C[C@@H]1CC[C@H]2[C@@H](C)C(=O)O[C@@H]3O[C@@]4(C)CC[C@@H]1[C@]32OO4,115%
CNCC(O)c1ccc(O)cc1 (centres unmarked),108%
CC[C@@]1(O)C(=O)OCc2c1cc1n(c2=O)Cc2cc3cc(O)ccc3nc2-1,62%
N=C(N)NN,115%
CCOC(=O)CC(SP(=S)(OC)OC)C(=O)OCC (centres unmarked),43.8%
C[C@@H]1CC[C@@]2(OC1)O[C@H]1[C@@H](O)[C@H]3[C@@H]4CC[C@H]5C[C@@H](O[C@@H]6O[C@H](CO)[C@H](O[C@@H]7O[C@H](CO)[C@@H](O)[C@H](O[C@@H]8OC[C@@H](O)[C@H](O)[C@H]8O)[C@H]7O[C@@H]7O[C@H](CO)[C@H](O)[C@H](O[C@@H]8O[C@H](CO)[C@@H](O)[C@H](O)[C@H]8O)[C@H]7O)[C@H](O)[C@H]6O)[C@H](O)C[C@]5(C)[C@H]4CC[C@]3(C)[C@H]1[C@@H]2C,15.4%

# Study 3
# Compound: COc1ccc(-c2c(Nc3ccccn3)[nH]c3c(C4=CCCCC4)c(-c4ccccc4)nn3c2=O)cc1
# Host: patients, advanced malignancies
# Route: oral
# Dose: dose not given
setting,patients with adverse event [%]
treatment-emergent Asthenia,12.5
treatment-emergent Constipation,17.5
treatment-emergent Anaemia,20
treatment-emergent Hyperglycaemia,10
grade 3 or higher Sepsis,5
treatment-emergent Pyrexia,12.5
treatment-emergent Thrombocytopenia,10
treatment-emergent Anxiety,10
treatment-emergent Vomiting,17.5
grade 3 or higher Anaemia,10

# Study 4
# Target: Eukaryotic initiation factor 4A-III (Homo sapiens, UniProt P38919)
# UniProt P38919, sequence (whole entry, looked up): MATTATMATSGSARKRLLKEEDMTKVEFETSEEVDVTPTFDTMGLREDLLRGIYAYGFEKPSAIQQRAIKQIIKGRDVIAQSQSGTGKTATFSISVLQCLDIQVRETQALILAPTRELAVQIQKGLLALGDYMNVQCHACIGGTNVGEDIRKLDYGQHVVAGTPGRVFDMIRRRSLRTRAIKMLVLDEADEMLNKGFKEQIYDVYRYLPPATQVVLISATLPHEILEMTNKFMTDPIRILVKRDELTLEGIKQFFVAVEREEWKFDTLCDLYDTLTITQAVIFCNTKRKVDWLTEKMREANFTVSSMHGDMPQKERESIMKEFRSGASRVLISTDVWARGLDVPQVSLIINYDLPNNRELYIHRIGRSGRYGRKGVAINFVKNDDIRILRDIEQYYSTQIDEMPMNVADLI
# Observed: RNA clamping
# Method: fluorescence polarization
# Tested at: concentration not given
# Added: FAM-labelled poly r(AG)8 RNA
Structure (SMILES),fluorescence polarization change
COC(=O)[C@@H]1[C@@H](O)[C@@]2(O)c3c(OC)cc(OC)cc3O[C@@]2(c2ccc(Br)cc2)[C@H]1c1ccccc1,6.8 mP
COc1ccc([C@@]23Oc4cc(OC)cc(OC)c4[C@]2(O)c2nc4n(c(=O)c2[C@H]3c2ccccc2)CCC4)cc1,36.2 mP and 47.5 mP
COC(=O)[C@@H]1[C@@H](c2ccccc2)[C@]2(c3ccc(OC)cc3)Oc3cc(OC)cc(OC)c3[C@@]23OC(c2ccccc2)=N[C@@]13O,5.8 mP
